Measurements from different studies.
Each numbered part is a random draw from the data of one study; scales do not carry over between parts. Changes are numbered by the printed parent chain.

Set 1
Target: Probable WRKY transcription factor 33, N-terminal DNA-binding domain (WRKY33, Arabidopsis thaliana, UniProt Q8S8P5, residues 169-264)
Technique: DNA-protein interaction ELISA
Form: double-stranded DNA, one strand shown
Sample: in vitro, bacterial lysate
Tested at: not given
Setting: whole dsDNA probe, crude lysate protein
Relative to: highest signal in screen
Reading: higher = stronger binding
Residues (chain): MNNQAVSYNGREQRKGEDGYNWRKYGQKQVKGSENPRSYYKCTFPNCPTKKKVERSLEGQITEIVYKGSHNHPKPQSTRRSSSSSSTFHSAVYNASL
| Sequence | relative absorbance |
| --- | --- |
| AAAAAAACCGCGTCGCGGCCCGGGAAAA | 20.7 % of maximum |
| AAAAAATGCAGACCTTCAGCTGGGTAAAAA | 24.6 % of maximum |
| AAAAAATAATATCGATACTCATGCCCAAAA | 20.4 % of maximum |
| AAAAAATGAGAGAATTTCCGGTTCAGAAAA | 23.1 % of maximum |
| AAAAAATTTCTCCTTCTTTGTTCTTCAAAA | 28.6 % of maximum |
| AAAAAAGCTTCGCGCCAGCGGGAAAA | 18.8 % of maximum |
| AAAAAAGGACGTCTTCGGTATGAGTGAAAA | 24 % of maximum |
| AAAAAAGGCCTTCGCTCGTGTTTACGAAAA | 23.1 % of maximum |
| AAAAAAAGTTCGCGGATTTCGGCCATAAAA | 23.6 % of maximum |
| AAAAAACTGCTTGCCCCTGTCTCCATAAAA | 12.9 % of maximum |
| AAAAAACTCGCGCTTGCATCTGTGCGAAAA | 21.9 % of maximum |
| AAAAAATATATTTTCAGCTTTAATCTAAAA | 29.4 % of maximum |
| AAAAAATTTGCGCTTCATCCTGCCCCAAAA | 24.5 % of maximum |
| AAAAAATTCGTATCTGTACCCTATGCAAAA | 22.4 % of maximum |
| AAAAAATTACTCCTAGCCCTCATTCAAAAA | 21.4 % of maximum |
| AAAAAAGCGGTAGATGCGCAACTGTGAAAA | 19.4 % of maximum |
| AAAAAATGGGGCTCTGGCCCACCGTAAAAA | 19.7 % of maximum |
| AAAAAACGTTAACACTGATTTAGGGTAAAA | 16 % of maximum |
| AAAAAATGAATCAATTTTTGGGCTTTAAAA | 31.4 % of maximum |

Set 2
Target: ABI1, truncated, D143A, DHFR fusion (Arabidopsis thaliana)
Technique: DHFR PCA, deep sequencing
Sample: yeast
Setting: methotrexate growth selection, single substitutions
With: (+)-ABA 0.0091 µM
Relative to: wild-type fitted maximum
Reading: higher = stronger binding
Parent: PYL1, truncated, DHFR fusion (Arabidopsis thaliana); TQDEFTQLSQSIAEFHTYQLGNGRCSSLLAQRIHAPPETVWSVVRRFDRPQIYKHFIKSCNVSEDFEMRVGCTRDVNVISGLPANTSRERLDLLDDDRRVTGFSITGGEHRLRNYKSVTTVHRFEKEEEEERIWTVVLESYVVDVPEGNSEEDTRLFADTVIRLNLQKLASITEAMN; partner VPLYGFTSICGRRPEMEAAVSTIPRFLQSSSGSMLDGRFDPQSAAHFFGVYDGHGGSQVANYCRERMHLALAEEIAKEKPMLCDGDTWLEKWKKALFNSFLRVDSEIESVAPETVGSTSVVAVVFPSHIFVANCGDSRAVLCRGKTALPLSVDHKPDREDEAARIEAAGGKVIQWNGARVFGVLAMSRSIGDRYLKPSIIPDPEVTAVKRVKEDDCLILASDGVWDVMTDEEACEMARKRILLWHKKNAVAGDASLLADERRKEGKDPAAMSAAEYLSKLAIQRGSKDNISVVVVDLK
| Substitution | relative binding score |
| --- | --- |
| A158L | 54.8% |
| S87P | 12% |
| H55A | 21.1% |
| A30I | 8.78% |
| V121N | -6.24% |
| D92N | 14.3% |
| E38A | 7.26% |
| V136T | -4.12% |
| Q7H | 25.6% |
| P83Q | 18.3% |
| E130A | 30.7% |
| V43Q | -3.59% |
| Y18L | -0.103% |
| E109V | -1.65% |
| I52H | 4.88% |
| C72M | 23.3% |
| N165G | 1.36% |
| F15K | -3.4% |

Set 3
Target: DBP, bZIP domain (human)
Technique: DHFR protein complementation
Sample: yeast
Setting: single substitutions, most at no-binding floor
Relative to: wild-type JUN-FOS pair
Reading: higher = stronger binding
Parent: JUN, bZIP domain (human); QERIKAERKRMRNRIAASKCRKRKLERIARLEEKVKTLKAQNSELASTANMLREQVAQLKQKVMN; partner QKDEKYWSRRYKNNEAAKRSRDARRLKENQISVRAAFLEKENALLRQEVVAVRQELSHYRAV
| Substitution | binding fitness [natural log] |
| --- | --- |
| V35F | -1.44 |
| K34A | -1.41 |
| I28H | -1.56 |
| K34E | -1.35 |
| S47W | -1.57 |
| T37G | -1.45 |
| K39T | -1.52 |
| E32V | -1.16 |
| E54V | -1.42 |
| A46L | -1.49 |
| L45V | -1.32 |
| A40D | -1.42 |
| Q41E | -1.46 |
| K39V | -1.42 |
| L52R | -1.49 |
| E32Q | -1.51 |
| K34C | -1.29 |
| Q55P | -1.54 |
| N42C | -1.53 |
| L52G | -1.51 |
| K36D | -1.46 |

Other studies, line by line
| Substance | target | test | test system | conditions | scale | quantity | result |
| --- | --- | --- | --- | --- | --- | --- | --- |
| PhoQ, residues 284 288 289 292 302 303 AGGCYF | PhoP, residues 12 14 15 18 19 MHTVL (Escherichia coli, UniProt P23836) | Sort-seq, item: YFP reporter | E. coli | PhoQ-PhoP variant library, with: 10 µM Mg2+ | relative to: high Mg2+ state, higher = stronger signaling | fold induction | 18.5 |
